Published values of several laboratories.
Every numbered part comes from another study and shows a few of its results, in no order.

Block 1 — method: RNA Bind-n-Seq; form: RNA; sample: in vitro; concentration: 200 nM; setting: whole 134-nt RNA, ends assumed; with: 150 mM LiCl; reference: input library; reading: higher = stronger binding; all molecules: 7-deaza-guanosine replaces G
Target: Ras GTPase-activating protein-binding protein 1, full length (G3BP1, Homo sapiens, UniProt Q13283)
UniProt Q13283, sequence (whole entry, looked up): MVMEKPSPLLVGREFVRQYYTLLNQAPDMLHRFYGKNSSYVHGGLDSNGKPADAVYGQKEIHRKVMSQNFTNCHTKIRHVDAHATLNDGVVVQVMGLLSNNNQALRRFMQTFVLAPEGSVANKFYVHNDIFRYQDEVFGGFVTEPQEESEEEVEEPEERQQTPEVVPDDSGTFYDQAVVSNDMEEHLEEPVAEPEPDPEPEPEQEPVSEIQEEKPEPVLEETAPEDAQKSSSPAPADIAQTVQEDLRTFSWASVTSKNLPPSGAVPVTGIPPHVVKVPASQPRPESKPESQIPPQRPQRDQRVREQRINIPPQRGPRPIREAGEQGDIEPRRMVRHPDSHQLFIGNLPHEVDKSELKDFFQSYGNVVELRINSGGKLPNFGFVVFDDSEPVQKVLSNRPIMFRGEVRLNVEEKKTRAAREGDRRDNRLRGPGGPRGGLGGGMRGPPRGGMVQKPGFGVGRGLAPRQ
| Sequence | log2 enrichment |
| --- | --- |
| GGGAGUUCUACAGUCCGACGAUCUCCUCAAGUCCUGUGCUACACAUCGUAUGUACCGAAUCGGAGGAAAGGAGGAAAGUAUUAUGUUACGCCGUUCGGAUCUGCACUUCCAGCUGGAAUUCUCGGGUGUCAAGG | -1.33 |
| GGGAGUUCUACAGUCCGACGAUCCUGUGCUACACAUCGUAUGUACCGAAUCGGCCCCCCCGGGGCCCCCCCGGGCCCCCCCGGGAAAGUAUUAUGUUACGCCGUUCGGAUCUGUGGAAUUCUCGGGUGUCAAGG | -1.2 |
| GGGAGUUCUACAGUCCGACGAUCCACAGACAACACGCACCCACACAGACACAGAGGGAAGGGGUUGGGAUGGAGACAGGGUGCACAGCAGGGCGGGGUAGGACCCCAGCCCCUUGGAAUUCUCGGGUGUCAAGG | 0.427 |
| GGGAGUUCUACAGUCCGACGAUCUCCUGUGCUACACAUCGUAUGUACCGAAUCAAACCCCCCCAAAUUUAAACCCCCCCAAAAAAGUAUUAUGUUACGCCGUUCGGAUCUGCAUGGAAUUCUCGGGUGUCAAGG | 1.23 |
| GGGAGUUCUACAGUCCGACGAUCAGUCCUGUGCUACACAUCGUAUGUACCGAAUCGGUUUUUUUGGUUUUUUUGGAAAGGAAAGUAUUAUGUUACGCCGUUCGGAUCUGCACUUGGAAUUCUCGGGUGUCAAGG | -1.31 |

Block 2 — method: protein binding microarray; form: double-stranded DNA, one strand shown; sample: in vitro; concentration: not given; reference: not given; reading: higher = stronger binding
Target: Histone acetyltransferase KAT6A, winged helix 1, GST fusion (KAT6A, Homo sapiens, UniProt Q92794, residues 1-85)
Setting: 8-mer, flanks averaged, mean of 2 arrays, mostly near background
Target sequence (chain): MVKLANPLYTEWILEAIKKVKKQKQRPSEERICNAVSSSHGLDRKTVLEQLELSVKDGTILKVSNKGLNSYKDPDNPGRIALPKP
| Sequence | E-score |
| --- | --- |
| ATGTTAAT | -0.167 |
| GGATGGCC | 0.014 |
| AGGCTCCA | -0.108 |
| GGACGCTA | 0.172 |
| TCCCAGCA | -0.115 |
| AAGCTTCA | -0.114 |

Block 3 — method: RNA Bind-n-Seq; form: RNA; sample: in vitro; concentration: 365 nM; reference: no-protein control; reading: higher = stronger binding
Target: RNA binding protein fox-1 homolog 2, RRM domain, GST-SBP tag (RBFOX2, Homo sapiens, UniProt O43251-10, residues 100-194)
Setting: natural RNA segment, single round, ends assumed
Residues (chain): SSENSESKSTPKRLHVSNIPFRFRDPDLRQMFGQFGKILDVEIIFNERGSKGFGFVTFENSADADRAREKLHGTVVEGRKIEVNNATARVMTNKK
| Sequence | RBNS enrichment (R) |
| --- | --- |
| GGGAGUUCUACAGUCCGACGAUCUUAAUAUACUUUCGUUCCAUGGUGUGCAGGUUUUCUUUUACUUCAGUGUUAUGAUCUCUUCCAGCUGUGCUCCAGUAGGGCGGAGAGCCUCGCACGUGCACCAGACCCCAUGGAAUUCUCGGGUGCCAA | 0.527 |
| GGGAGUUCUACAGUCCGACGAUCAAGAGUCUACCUUUCCAAGUUCUCACUGCUGGAAAGAGCUAGAAGCACAGUUCAAAGUUCUGGCUUCUGGACUCUGCAGUCCAGGUCUCCCUUCUCCCACUUGCCUACCCUGGAAUUCUCGGGUGCCAA | 0.277 |
| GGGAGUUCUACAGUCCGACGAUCAUUCCGGCUCGGCCCGCUCCUGCACCUCCUUUAUAUAGCUCCCUCACCUGAUAGUAGAAUAUUAGAAUCUUAUUUUUUAAAUGUCUUCAGGGAACUGAGCAAAUGUUUGUUGGAAUUCUCGGGUGCCAA | 0.666 |
| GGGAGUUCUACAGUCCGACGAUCCUGCCGCUCCUCUGGUCACAGUCCACGCAGGCCAGCCCUGGUUUCUGGAAAGAGGCCUCCCUCCCUCCCUUUGUGGAGCCGUCAGUCAUCCCCAAGAUGAGAGGCGAGCAUGGAAUUCUCGGGUGCCAA | 0.674 |
| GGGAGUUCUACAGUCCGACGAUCAGCCUCAAACUCCAAACACCAUAGGUAGGACACGAAGCUUAUCUGUGAUUCAAAACAAAGGAGAUACUGCAGUGGGAAUUGUGACCUGAGUGACUCUCUGUCAGAACAAAUGGAAUUCUCGGGUGCCAA | 0.724 |
| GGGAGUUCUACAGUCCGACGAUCGGUGGUUGGCCAGAGAUGGGGAACAGCCAGGUGCCCCAGUCCUCUGAUUUUUCCUCCAUCCUGCUUACCACCUCCCUGGGUACUUACAGCCUUCUCUUGGGAACAGCCGGUGGAAUUCUCGGGUGCCAA | 0.23 |
| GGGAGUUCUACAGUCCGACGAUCUUUAGCAUUAUAAGAGAGAUUGGACAAACCAGUCCAAAGUGGUCCGAGUUCUUAAAUCCAGGUAGGGAACUCACUCUUCUUUCUUCUCUGGACCUAAUUGGGCAUUGGGCUGGAAUUCUCGGGUGCCAA | 1.14 |

Further values, each from its own experiment
| Molecule | target | assay | system | conditions | scale | endpoint | result |
| --- | --- | --- | --- | --- | --- | --- | --- |
| PhoQ, residues 284 288 289 292 302 303 NLAAMI | PhoP, residues 12 14 15 18 19 TPWLV (Escherichia coli, UniProt P23836) | Sort-seq, refers to: YFP reporter | E. coli | PhoQ-PhoP variant library, with: 10 µM Mg2+ | reference: high Mg2+ state, higher = stronger signaling | fold induction | 14.7 |

For quick reference, copied from above (block 2):
| Sequence | E-score |
| --- | --- |
| AAGCTTCA | -0.114 |
| TCCCAGCA | -0.115 |
